# Experimental data pooled from the literature.
# A part holds a random share of what one study measured.

# Series 1 — method: protein-binding microarray; form: double-stranded DNA, one strand shown; sample: in vitro; tested at: 250 nM; notes: 60-bp whole probe; together with: salmon DNA 0.4 mg/ml; relative to: random background probes; direction: higher = stronger binding; constant ends, left off below: GCCTAGCAC … GTCTTGATTCGCTTGACGCTGCTG
# Target: Interferon regulatory factor 7, full length, phosphomimetic (IRF7, Homo sapiens, UniProt Q92985, residues 1-503, S101K/S471D/S472D/S475D/S476D/S477D/S483D/S484D/S487D)
# Residues (chain): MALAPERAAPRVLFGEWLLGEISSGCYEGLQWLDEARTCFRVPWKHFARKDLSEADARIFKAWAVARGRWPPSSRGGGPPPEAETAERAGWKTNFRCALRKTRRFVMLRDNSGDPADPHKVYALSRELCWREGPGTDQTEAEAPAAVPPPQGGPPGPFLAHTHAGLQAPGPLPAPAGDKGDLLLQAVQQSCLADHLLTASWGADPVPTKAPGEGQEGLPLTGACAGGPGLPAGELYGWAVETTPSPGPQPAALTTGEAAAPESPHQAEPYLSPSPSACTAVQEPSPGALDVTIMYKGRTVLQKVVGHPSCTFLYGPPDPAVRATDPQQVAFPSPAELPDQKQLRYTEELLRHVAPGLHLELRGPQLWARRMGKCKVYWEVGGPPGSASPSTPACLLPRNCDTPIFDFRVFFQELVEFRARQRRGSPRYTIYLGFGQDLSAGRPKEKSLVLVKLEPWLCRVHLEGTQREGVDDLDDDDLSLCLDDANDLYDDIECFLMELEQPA
Strand,log fluorescence
CTGAATGTCCTCCTCTCTCTGTGCTAG,0.126 z-score
TCAGTTTCCCCTATTTAACTGTGCTAG,3.71 z-score
GGCAGCCTCTGCATTCCCTCAGTGCTA,-1.37 z-score
GACGGTTTCGGATATCGGGACGTGCTA,6.09 z-score
TTAGGACTAGGTCTCGGTTAGTGCTAG,1.73 z-score
TTAGATATCAGTCTCAATTAGTGCTAG,0.373 z-score
TTGAATCTCCCATTATATTTGTGCTAG,0.295 z-score
TCACTAATGTTTTTTAAACTGTGCTAG,0.139 z-score
GACCATTTCAGTATCGAGACGTGCTAG,1.47 z-score
TTAGGTTTCGGTTCCGCTTAGTGCTAG,12.4 z-score
GACGGACTGGGATTTCGGGACGTGCTA,-0.603 z-score
TTAGGGTTCGGACTGGGTTAGTGCTAG,0.2 z-score
TTCCATTTCTGTTTTTGCTTGTGCTAG,1.97 z-score
GAAGGTTCCCTTTTCCTGACGTGCTAG,3.77 z-score
GTTGGGGCGGGGCGGGGTGGGTGCTAG,4.13 z-score
GACGGACTGCTTATCCCGACGTGCTAG,-0.219 z-score
GACGAATTCGGGACTGGAGACGTGCTA,-0.23 z-score
TCAACTAGGGCATTTAGAACTGTGCTA,-0.852 z-score
GACGGTATCCTGATCCTGACGTGCTAG,-0.242 z-score

# Series 2 — method: RNA Bind-n-Seq; form: RNA; sample: in vitro; tested at: 365 nM; relative to: no-protein control; direction: higher = stronger binding
# Target: RNA binding protein fox-1 homolog 2, RRM domain, GST-SBP tag (RBFOX2, Homo sapiens, UniProt O43251-10, residues 100-194)
# Notes: natural RNA segment, single round, ends assumed
# Target sequence (chain): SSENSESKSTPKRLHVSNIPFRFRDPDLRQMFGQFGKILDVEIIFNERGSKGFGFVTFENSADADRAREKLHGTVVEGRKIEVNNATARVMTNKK
Strand,RBNS enrichment (R)
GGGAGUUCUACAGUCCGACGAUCACCAGCGCAGAGCGGGGGCAGCCUGCCCCGCUGUAGCACAGGAGCAAUGGUGUAGCGUCUUCCAAGGCCUUACUUUUUUUUCAGAAUGCUUUAAGUGUUGGCUGUAUGUGUGGAAUUCUCGGGUGCCAA,10.1
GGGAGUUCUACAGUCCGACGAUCUGCCUUGAAAAAUGACAAUUGUGAACACGAUAGUUAACUGUACUACUUUUUAAGCUGUUGUUAUGCAAAUCUUGAAGAAGUUACUGGCAUGGUUGUUGCAUAUAGUAAAAUGGAAUUCUCGGGUGCCAA,2.14
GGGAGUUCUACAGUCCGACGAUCUUGAUUUUCCUCUGGGCCCAAAUAUAGCCCUCACACUCUUGGAAUUUCCAGGUAUGGGGGUAGCCCCAAAAGGAGGAAUCUCCUAUGGCCAAUAAGGUAUCUUGACUUUAUGGAAUUCUCGGGUGCCAA,0.418
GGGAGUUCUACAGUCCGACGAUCCAGUCAAACUGUGAAGCACUAAGCUGACCCUGCUUCAAGCAAUUUUGUUUUUACAACUGUUCCUUUCACAAGCAAGCCUUAAAAAAAAAAAAGACAACUUCCUUUUUCUUUGGAAUUCUCGGGUGCCAA,0.783
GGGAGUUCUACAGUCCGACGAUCCCAGGGACCACUGGGUGAGAGAGGAAUAAGGCCCAGAGCGAGGAAAGGAUUUUACCAAAGCAUCAAUACAACCAGCCCAACCAUCGGUCCACACCUGGGCAUUUGGUGAGUGGAAUUCUCGGGUGCCAA,0.68
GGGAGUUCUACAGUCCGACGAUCAGUGCAUUGGGCCUGAAUCUCUGAACACUGUAGACCCAUUAGAAGGAAGAUUGUUCUGACCGUCACAAAUUGUAGUGCCUGAAAACACUUAACACUGAUUGUCUAAGAGAUGGAAUUCUCGGGUGCCAA,0.478
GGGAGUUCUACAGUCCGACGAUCCUGUUAUUUAUUCUUGUUUAUUCAAAUGACUGCAAUAACAAUGUUUCAUUCACUAAUGUUAAGGUUAAUAUGUUUAAGAUCUUGUUUAAAUGAUGUUUCUUCUGCAACUGUGGAAUUCUCGGGUGCCAA,0.252
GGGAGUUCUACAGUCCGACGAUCCCCACCUUGUUUCCCAGCCUGCACCUUAGAAGCCGAAGGUGCUUUCAUCAGAACCCUAAAAUGGUCGUUGAAGGCGCCUGGGCCGCAGCCCAGCAGUAGUUGGAGAGGCAUGGAAUUCUCGGGUGCCAA,0.401

# Series 3 — method: protein binding microarray; form: double-stranded DNA, one strand shown; sample: in vitro; tested at: not given; relative to: not given; direction: higher = stronger binding
# Target: Histone acetyltransferase KAT6A, both winged helices, GST fusion (KAT6A, Homo sapiens, UniProt Q92794, residues 1-181)
# Notes: 8-mer, flanks averaged, mean of 2 arrays, mostly near background
# Target sequence (chain): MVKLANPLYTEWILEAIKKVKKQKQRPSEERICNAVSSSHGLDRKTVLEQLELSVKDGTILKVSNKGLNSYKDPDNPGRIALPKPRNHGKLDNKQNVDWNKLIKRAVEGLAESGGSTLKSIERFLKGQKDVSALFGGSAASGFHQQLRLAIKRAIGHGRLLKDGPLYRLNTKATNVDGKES
Strand,E-score
ATGTTCCC,0.0278
CGGGCGCC,0.314
CGTACATC,0.0827
ACAGTAAT,-0.0733
AAAGACGT,-0.154
CGCGACAC,0.214
CTTATGTC,-0.0153
GATATCGA,-0.141
CCAGGCCC,-0.152
CGAAACGA,0.00543
TCGGAAGA,0.0586
GATTTTGA,-0.0953
GTCCCAAC,-0.11
AAACCCCG,0.144
CGTGGAAG,0.138
ACGTTCGA,-0.00484
AACGTACT,-0.0727

# Series 4 — method: RNA Bind-n-Seq; form: RNA; sample: in vitro; tested at: 1 µM; notes: whole 134-nt RNA, ends assumed; together with: 150 mM KCl; relative to: input library; direction: higher = stronger binding
# Target: Ras GTPase-activating protein-binding protein 1, C-terminal RGG region (G3BP1, Homo sapiens, UniProt Q13283)
# UniProt Q13283, sequence (whole entry, looked up): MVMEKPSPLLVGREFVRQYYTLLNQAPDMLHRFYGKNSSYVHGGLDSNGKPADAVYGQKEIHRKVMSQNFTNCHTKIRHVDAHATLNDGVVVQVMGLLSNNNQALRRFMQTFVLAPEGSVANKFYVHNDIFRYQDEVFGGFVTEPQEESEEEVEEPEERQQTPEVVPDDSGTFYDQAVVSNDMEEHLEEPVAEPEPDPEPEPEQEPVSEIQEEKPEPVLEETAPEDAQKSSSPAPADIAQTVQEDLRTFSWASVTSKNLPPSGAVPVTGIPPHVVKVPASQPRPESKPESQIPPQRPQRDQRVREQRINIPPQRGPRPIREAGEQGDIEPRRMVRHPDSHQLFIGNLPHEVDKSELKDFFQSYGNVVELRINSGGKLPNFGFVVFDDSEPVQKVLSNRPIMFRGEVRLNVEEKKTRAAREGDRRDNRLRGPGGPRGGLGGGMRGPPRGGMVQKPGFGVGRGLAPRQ
Strand,log2 enrichment
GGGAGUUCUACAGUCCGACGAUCGUCCUGUGCUACACAUCGUAUGUACCGAAUCAAAUUUAAACCCCCCCAAACCCCCAAAAAAGUAUUAUGUUACGCCGUUCGGAUCUGCACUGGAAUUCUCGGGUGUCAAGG,-0.779
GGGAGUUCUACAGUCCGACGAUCCCUGUGCUACACAUCGUAUGUACCGAAUCGGUUUUUUUGGGUUUUUUUGGGUUUUUUUGGAAAGUAUUAUGUUACGCCGUUCGGAUCUGCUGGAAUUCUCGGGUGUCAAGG,-1.24
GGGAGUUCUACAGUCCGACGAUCUCCUGUGCUACACAUCGUAUGUACCGAAUCGGGGAAAAAGGGAAAAAGGGGAAAAAGGGGAAAGUAUUAUGUUACGCCGUUCGGAUCUGCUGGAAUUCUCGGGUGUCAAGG,-0.246
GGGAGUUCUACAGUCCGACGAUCCCUGUGCUACACAUCGUAUGUACCGAAUCGUGUGUGUGUGUGUGUGUGUGUGUGUGUGUGUAAAGUAUUAUGUUACGCCGUUCGGAUCUGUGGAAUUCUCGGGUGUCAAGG,1.51
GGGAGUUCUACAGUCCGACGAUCUCAAGUCCUGUGCUACACAUCGUAUGUACCGAAUCGGGGCCCGGGCCCGGCCCGGAAAGUAUUAUGUUACGCCGUUCGGAUCUGCACUUCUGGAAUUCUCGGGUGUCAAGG,-1.7
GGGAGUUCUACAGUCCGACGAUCGUCCUGUGCUACACAUCGUAUGUACCGAAUCGGGGAAAAAGGAAAAAGGGGAAAAAGGGAAAGUAUUAUGUUACGCCGUUCGGAUCUGCAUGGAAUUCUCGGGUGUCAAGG,-1.14
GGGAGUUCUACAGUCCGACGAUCCCUGUGCUACACAUCGUAUGUACCGAAUCGGCCCCCCCGGGGCCCCCCCGGCCCCCCCGGAAAGUAUUAUGUUACGCCGUUCGGAUCUGCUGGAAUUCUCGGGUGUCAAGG,-1.46
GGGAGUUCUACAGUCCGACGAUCUGGCCCUGGUGGCAUGCGGGGAGGAAGAGGUGGCCUCAUGGAUCGUGGUGGUCCCGGUGGAAUGUUCAGAGAUGGCCGUGGUGGAGACAGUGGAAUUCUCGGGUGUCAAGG,3.29
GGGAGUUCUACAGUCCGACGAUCUCCUGUGCUACACAUCGUAUGUACCGAAUCGGGGAAAGGGGAAAGGGGAAAAAAAGGGGAAAGUAUUAUGUUACGCCGUUCGGAUCUGCAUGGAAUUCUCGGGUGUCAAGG,1.41

# Excerpt of the above (series 1):
Strand,log fluorescence
GACGGTATCCTGATCCTGACGTGCTAG,-0.242 z-score
CTGAATGTCCTCCTCTCTCTGTGCTAG,0.126 z-score
GACGGTTTCGGATATCGGGACGTGCTA,6.09 z-score
TTCCATTTCTGTTTTTGCTTGTGCTAG,1.97 z-score
TTAGATATCAGTCTCAATTAGTGCTAG,0.373 z-score
TTAGGTTTCGGTTCCGCTTAGTGCTAG,12.4 z-score
GACGGACTGCTTATCCCGACGTGCTAG,-0.219 z-score
